Experimental data gathered from unrelated publications.
Compare with care: the assays were run in different laboratories. Several values in a cell are separate wells, animals, samples, runs or records. ± marks the error that the study gave.
Pteridine reductase 1: Pteridine reductase 1 (Leishmania major, UniProt Q01782)
Chain of UniProt Q01782 (whole entry, looked up): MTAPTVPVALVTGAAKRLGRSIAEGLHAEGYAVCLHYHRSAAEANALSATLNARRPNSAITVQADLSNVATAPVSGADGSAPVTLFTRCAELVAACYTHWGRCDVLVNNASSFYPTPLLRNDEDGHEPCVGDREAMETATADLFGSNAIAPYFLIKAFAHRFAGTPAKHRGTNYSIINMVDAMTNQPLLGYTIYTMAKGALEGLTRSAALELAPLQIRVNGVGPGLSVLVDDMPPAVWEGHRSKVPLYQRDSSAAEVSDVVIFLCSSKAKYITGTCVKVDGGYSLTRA
BEST2: Bestrophin-2a (BEST2, Homo sapiens, UniProt Q8NFU1)
Chain of UniProt Q8NFU1 (whole entry, looked up): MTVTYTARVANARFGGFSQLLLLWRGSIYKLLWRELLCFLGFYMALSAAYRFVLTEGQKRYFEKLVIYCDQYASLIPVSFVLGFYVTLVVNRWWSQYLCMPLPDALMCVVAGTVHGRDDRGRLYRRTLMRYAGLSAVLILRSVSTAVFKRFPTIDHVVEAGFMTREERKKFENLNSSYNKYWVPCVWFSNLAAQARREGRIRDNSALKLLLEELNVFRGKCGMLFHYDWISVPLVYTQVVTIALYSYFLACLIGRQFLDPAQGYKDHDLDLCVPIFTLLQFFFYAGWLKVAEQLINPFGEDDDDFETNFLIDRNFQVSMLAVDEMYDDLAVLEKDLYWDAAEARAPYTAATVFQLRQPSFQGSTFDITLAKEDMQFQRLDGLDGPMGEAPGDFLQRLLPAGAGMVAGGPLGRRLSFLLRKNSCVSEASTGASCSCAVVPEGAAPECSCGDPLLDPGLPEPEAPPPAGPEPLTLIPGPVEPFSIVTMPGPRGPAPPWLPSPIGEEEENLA
TOP2A: DNA topoisomerase 2-alpha (TOP2A, Homo sapiens, UniProt P11388)
PKN1: Serine/threonine-protein kinase N1 (PKN1, Homo sapiens, UniProt Q16512)
T1: G-quadruplex RNA (Caenorhabditis elegans); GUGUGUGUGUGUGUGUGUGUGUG
Chain of UniProt Q8IVV7 (whole entry, looked up): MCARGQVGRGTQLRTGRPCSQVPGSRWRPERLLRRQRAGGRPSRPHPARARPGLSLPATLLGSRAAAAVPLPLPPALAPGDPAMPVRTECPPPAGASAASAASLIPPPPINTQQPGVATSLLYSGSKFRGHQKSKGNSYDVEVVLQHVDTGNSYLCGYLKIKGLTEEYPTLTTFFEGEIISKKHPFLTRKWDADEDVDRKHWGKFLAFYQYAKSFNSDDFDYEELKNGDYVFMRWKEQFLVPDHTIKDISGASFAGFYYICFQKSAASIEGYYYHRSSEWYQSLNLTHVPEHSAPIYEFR
Chain of UniProt P05164 (whole entry, looked up): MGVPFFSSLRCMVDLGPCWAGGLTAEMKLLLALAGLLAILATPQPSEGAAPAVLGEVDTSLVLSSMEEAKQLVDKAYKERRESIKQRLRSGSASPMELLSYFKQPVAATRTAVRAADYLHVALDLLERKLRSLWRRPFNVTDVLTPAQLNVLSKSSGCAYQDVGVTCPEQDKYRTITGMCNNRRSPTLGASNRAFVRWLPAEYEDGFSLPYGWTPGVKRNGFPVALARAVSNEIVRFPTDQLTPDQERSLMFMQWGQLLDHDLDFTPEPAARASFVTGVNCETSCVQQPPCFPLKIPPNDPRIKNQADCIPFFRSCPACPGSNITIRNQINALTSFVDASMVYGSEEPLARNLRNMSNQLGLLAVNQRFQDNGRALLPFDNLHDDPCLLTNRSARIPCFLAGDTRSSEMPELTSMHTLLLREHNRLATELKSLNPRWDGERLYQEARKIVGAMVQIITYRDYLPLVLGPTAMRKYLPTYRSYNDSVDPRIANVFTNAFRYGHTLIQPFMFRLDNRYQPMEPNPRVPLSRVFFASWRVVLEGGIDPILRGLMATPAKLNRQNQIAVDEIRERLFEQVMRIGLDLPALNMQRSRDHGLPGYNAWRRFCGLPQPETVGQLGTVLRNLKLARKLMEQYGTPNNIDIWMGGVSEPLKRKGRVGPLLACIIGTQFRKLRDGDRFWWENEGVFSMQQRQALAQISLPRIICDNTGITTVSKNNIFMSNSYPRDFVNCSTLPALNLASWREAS
Chain of UniProt Q16774 (whole entry, unmodified, looked up): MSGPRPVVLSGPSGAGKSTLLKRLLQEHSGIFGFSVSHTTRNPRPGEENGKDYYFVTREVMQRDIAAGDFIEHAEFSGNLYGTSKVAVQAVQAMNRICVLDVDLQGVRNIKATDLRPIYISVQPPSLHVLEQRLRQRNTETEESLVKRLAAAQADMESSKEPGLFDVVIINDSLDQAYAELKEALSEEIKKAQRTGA
Chain of UniProt P53621 (whole entry, looked up): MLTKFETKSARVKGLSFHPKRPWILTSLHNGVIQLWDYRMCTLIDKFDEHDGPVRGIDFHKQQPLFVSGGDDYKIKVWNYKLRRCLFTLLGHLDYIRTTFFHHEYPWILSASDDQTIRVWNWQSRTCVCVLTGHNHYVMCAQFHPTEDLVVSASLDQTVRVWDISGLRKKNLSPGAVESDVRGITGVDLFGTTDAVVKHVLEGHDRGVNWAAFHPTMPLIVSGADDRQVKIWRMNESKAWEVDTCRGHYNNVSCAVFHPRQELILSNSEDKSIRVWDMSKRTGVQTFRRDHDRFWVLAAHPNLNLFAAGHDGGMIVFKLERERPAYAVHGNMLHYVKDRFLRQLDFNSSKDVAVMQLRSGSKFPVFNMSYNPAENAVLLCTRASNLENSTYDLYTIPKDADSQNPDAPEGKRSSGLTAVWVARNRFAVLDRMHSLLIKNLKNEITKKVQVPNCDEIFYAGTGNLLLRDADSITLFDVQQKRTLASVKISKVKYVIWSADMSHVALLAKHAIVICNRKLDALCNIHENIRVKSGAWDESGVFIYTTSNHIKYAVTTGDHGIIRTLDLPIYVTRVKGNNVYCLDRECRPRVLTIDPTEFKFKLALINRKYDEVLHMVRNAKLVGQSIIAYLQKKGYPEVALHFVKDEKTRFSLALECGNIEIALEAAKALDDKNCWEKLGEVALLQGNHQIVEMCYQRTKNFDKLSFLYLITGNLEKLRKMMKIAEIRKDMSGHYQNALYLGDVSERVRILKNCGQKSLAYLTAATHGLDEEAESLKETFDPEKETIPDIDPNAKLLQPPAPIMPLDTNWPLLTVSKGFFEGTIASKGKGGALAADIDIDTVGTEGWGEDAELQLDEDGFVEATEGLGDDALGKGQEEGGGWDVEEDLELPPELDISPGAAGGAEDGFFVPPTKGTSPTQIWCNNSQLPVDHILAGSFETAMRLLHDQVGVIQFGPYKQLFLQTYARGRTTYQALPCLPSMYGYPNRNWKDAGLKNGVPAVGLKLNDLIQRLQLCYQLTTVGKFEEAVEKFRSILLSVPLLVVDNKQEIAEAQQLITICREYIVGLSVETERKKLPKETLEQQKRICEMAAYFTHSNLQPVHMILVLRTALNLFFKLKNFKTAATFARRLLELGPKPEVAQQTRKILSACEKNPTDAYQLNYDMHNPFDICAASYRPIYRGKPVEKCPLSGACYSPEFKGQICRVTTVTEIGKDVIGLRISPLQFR
Chain of UniProt Q9UM73 (whole entry, looked up): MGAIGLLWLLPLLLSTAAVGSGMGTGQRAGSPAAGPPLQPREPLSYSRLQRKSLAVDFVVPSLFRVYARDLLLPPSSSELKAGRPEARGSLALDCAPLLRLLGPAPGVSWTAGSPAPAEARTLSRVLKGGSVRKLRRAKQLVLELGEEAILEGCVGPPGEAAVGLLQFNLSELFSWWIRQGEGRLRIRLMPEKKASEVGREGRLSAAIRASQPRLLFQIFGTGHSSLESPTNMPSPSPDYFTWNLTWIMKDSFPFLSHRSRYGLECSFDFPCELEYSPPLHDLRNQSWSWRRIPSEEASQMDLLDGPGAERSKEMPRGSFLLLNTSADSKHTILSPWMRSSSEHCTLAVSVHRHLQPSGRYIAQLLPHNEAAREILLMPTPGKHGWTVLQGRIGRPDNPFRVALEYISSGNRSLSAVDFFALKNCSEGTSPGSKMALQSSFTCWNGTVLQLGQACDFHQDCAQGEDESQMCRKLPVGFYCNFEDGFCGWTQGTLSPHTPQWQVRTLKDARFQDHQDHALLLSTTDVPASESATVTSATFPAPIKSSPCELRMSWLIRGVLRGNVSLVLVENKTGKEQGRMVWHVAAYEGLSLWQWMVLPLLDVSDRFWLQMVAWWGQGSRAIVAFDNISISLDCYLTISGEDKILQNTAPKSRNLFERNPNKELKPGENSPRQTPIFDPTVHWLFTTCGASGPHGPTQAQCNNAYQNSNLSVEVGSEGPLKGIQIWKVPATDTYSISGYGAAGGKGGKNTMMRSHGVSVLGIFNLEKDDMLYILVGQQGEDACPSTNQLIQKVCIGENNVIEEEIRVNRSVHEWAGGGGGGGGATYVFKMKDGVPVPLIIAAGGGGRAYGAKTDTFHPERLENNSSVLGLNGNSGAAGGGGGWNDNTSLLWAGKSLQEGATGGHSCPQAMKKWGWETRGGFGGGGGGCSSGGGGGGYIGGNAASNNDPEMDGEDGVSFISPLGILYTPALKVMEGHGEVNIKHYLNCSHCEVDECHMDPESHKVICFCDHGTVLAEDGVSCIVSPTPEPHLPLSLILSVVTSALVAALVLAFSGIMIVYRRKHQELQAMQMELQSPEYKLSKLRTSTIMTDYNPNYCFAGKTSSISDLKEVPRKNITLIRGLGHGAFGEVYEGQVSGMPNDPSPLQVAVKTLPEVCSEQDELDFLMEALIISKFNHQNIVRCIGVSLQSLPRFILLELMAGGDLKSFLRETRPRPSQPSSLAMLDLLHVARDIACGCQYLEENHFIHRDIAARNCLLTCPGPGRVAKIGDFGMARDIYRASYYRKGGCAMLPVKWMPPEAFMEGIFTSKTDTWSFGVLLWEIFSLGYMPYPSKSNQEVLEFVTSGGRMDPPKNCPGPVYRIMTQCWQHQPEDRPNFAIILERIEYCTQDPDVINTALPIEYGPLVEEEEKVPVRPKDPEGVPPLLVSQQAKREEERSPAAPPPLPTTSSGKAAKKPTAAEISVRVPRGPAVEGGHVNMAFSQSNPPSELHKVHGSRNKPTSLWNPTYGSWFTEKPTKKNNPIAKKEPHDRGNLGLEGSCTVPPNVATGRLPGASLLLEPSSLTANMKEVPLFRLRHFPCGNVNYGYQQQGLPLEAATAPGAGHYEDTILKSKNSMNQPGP
Chain of UniProt P29373 (whole entry, unmodified, looked up): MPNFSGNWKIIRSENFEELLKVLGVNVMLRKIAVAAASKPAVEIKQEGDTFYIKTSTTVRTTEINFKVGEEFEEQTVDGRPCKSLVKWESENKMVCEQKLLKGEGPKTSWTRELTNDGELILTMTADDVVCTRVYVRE

Compound	target	test	test system	conditions	how to read	quantity	value
Cc1c(COc2ccc(CN3CCCCC3C(=O)NCCCC(=O)N(C)CCCC34CCC(c5ccccc53)c3ccccc34)cc2Br)cccc1-c1ccccc1 (centres unmarked)	CD274 (Homo sapiens, UniProt Q9NZQ7)	degrader, western blot	HL-60	1 µM		degradation	< 5%
CCN(Cc1cnc2nc(N)nc(N)c2n1)c1ccc(C(=O)c2ccccc2)cc1	Pteridine reductase 1			hDHFR weight 10	baseline: LmPTR1, LmDHFR over hDHFR, 1.0 selective, 0.0 non-selective	partition index	0.89
Oc1ccc(Cl)cc1Nc1nc(NCC2CCCO2)c2ccccc2n1 (centres unmarked)	GBA1 (Homo sapiens, UniProt P04062, R534H)				baseline: bodipy-glucosylceramide over glucosylceramide	IC50 ratio	~13 fold
CC(Oc1ccccc1)C(=O)NCc1ccccn1 (centres unmarked)	DDB1 (Homo sapiens, UniProt Q16531)	binding, affinity selection mass spectrometry			baseline: other proteins in batch	fold enrichment	1.56
CC(=O)N[C@H](C(=O)N1C[C@H](O)C[C@H]1C(=O)NCc1ccc(-c2scnc2C)cc1)C(C)(C)SCCCCCCNC(=O)C[C@@H]1N=C(c2ccc(Cl)cc2)c2c(sc(C)c2C)-n2c(C)nnc21	BRD4/VHL, BD2; with elongins B/C (Homo sapiens, UniProt O60885+P40337, A384K/E383V/K378Q)	ITC		25 °C, unit not given, added: BRD4 BD2	baseline: ternary over binary	ΔpKd	0.3 ± 0.1
O=C(O)c1ccc([N+](=O)[O-])cc1	BEST2	whole-cell patch clamp	HEK293 transiently expressing channel	concentration not given, membrane potential -20 mV		current density	-74.9 pA/pF and -61.1 pA/pF and -20.3 pA/pF and -51.1 pA/pF and -58.5 pA/pF
CC(=O)/N=c1/sc(S(N)(=O)=O)nn1C	CA4 (Homo sapiens, UniProt P22748)	ITC		concentration not given, 25 °C		intrinsic binding ΔG	-10.4 kcal/mol
CC1=C(/C=C/C(C)=C/C=C/C(C)=C/C(=O)O)C(C)(C)CCC1	CRABP2 (Homo sapiens, UniProt P29373, R133K)	tryptophan fluorescence quenching		concentration not given	baseline: R132K versus wild type, higher = weaker binding	binding affinity fold decrease	30 fold
COC(=O)C1CCN(C(=O)c2cccc(NCc3cnc4nc(N)nc(N)c4n3)c2)CC1	Pteridine reductase 1			hDHFR weight 10	baseline: LmPTR1, LmDHFR over hDHFR, 1.0 selective, 0.0 non-selective	partition index	0.79
N[C@@H](CCC(=O)O)C(=O)O	BEST2	whole-cell patch clamp	HEK293 transfected	concentration not given, compound external permeant anion, at 80 mV		current density	27.3 pA/pF and 26.2 pA/pF and 38.7 pA/pF and 39.4 pA/pF and 39 pA/pF
Oc1ccccc1-c1n[nH]cc1-c1ccnc2ccccc12	Actin-regulating kinase PRK1 (PRK1, Candida albicans, UniProt Q5A961)	kinase binding, MIB/MS competition	Candida albicans lysate	1 µM	baseline: DMSO, negative = stronger binding	log2 fold change	-0.19
C=C1CN(S(=O)(=O)c2ccc(C)cc2)CCCN(Cc2ccccc2)CCCN(S(=O)(=O)c2ccc(C)cc2)C1	Protein transport protein Sec61 subunit alpha isoform 1 (Homo sapiens, UniProt P61619)	refers to: control signal peptide-FLuc reporter	HEK293	0.0043 mM, 6 h		FLuc/RLuc ratio	1.14
O=c1nc(SCc2cc(F)cc(C(F)(F)F)c2)nc(SCc2cccc(C(F)(F)F)c2)[nH]1	TOP2A	decatenation		7.8 µM, replicate 2		decatenated DNA	92.9%
CC1(C)CC2(C)OC(=O)NC2(C)c2ccccc21 (centres unmarked)	DNA (cytosine-5)-methyltransferase 3A, PWWP domain (DNMT3A, Homo sapiens, UniProt Q9Y6K1)	binding, affinity selection mass spectrometry			baseline: other proteins in batch	fold enrichment	0.69
N#Cc1ccc(C[C@H](NC(=O)c2cc3ccccc3[nH]2)C(=O)N2CCc3ccccc32)cc1	FPR1 (Homo sapiens, UniProt P21462)	calcium mobilization, agonist	HL-60	concentration not given		agonist activity	inactive
O=c1c(O)c(-c2ccc(O)c(O)c2)oc2cc(O)cc(O)c12	FOXO3 (Homo sapiens, UniProt O43524)	binding, fluorescence quenching	PBS	298 K		Ka	133000 M⁻¹
O=c1nc(SCc2cc(F)cc(C(F)(F)F)c2)nc(SCc2ccc3sccc3c2)[nH]1	TOP2A	DNA relaxation		62.5 µM		mean relaxed DNA	0.6%
CN1CCN(Cc2ccc(-c3cnc4[nH]cc(-c5ccc6[nH]ccc6c5)c4c3)cc2)CC1	PKN1	inhibitor				Hill slope	-1.03
N#Cc1ccc2c(-c3ccncc3)c(-c3ccc(F)cc3)nn2c1	Mitogen-activated protein kinase MKC1 (MKC1, Candida albicans, UniProt P43068)	kinase binding, competitor, MIB/MS competition, refers to: MKC1	Candida albicans cell lysate	1 µM	baseline: DMSO	log2 fold change	0.309
O=C(COP(=O)(O)O)[C@@H](O)[C@H](O)[C@H](O)COP(=O)(O)O	Coatomer subunit alpha (Homo sapiens, UniProt P53621)	thermal proteome profiling, refers to: COPA	HepG2 cell lysate	concentration not given, 57 over 37 °C	baseline: compound over control	thermal stability ratio	0.556 and 0.533 and 0.545
O=c1c(OS(=O)(=O)[O-])c(-c2ccc(OS(=O)(=O)[O-])c(OS(=O)(=O)[O-])c2)oc2cc(OS(=O)(=O)[O-])cc(OCc3ccc(COc4cc(OS(=O)(=O)[O-])cc5oc(-c6ccc(OS(=O)(=O)[O-])c(OS(=O)(=O)[O-])c6)c(OS(=O)(=O)[O-])c(=O)c45)cc3)c12.[Na+].[Na+].[Na+].[Na+].[Na+].[Na+].[Na+].[Na+]	Neutrophil elastase (ELANE, Homo sapiens, UniProt P08246)	enzyme activity, inhibitor		added: chromogenic substrate		Hill slope	1.2

Compound	target	test	test system	conditions	how to read	quantity	value
O=c1nc(SCc2cc(F)cc(C(F)(F)F)c2)nc(SCc2ccc3ncsc3c2)[nH]1	TOP2A	decatenation		125 µM, replicate 2		decatenated DNA	0%
Cn1ncc(Cl)c1-c1cc(C(=O)N[C@H](CN)Cc2ccc(F)c(F)c2)oc1Cl	PKN1	inhibitor				Hill slope	-0.96
CCc1c(C)c2cc3nc(cc4nc(cc5c(CC)c(C)c(cc1[nH]2)n5C)C(C)=C4CCC(=O)O)C(CCC(=O)O)=C3C	T1, G-quadruplex RNA (Caenorhabditis elegans)	X-ray crystallography				binding	binds
[O-][S+]1CCCCS1 (centres unmarked)	SOD1 (Homo sapiens, UniProt P00441, G94A)	refers to: SOD1 dimer	SOD1 G93A transgenic mice, blood	sc, 30 mg/kg twice daily		target engagement	85.6%
NC(N)=S	Urea transporter 1 (Homo sapiens, UniProt Q13336)	transport				Km	19 mM
O=C(O)c1ccc(Nc2ncc3c(n2)-c2ccc(Cl)cc2C(c2c(F)cccc2F)=NC3)cc1	BrSK1(h)	kinase activity		1 µM		remaining activity	92%
COc1cc(N2CCC(N3CCN(C)CC3)CC2)ccc1Nc1ncc(Cl)c(Nc2ccccc2P(C)(C)=O)n1	GID4/ALK (Homo sapiens, UniProt Q8IVV7+Q9UM73)	ternary complex formation	HEK293T	100 nM, 6 h	baseline: normalised ratio	NanoBRET ratio	1.04 and 1 and 1.01
Nc1ncnc2c1ncn2[C@@H]1O[C@H](COP(=O)(O)CP(=O)(O)OP(=O)(O)O)[C@@H](O)[C@H]1O	P2X purinoceptor 1 (P2RX1, Homo sapiens, UniProt P51575, F188L)	saturation binding	HEK293	130 nM		specific binding	6760 CCPM
[Zn+2]	Otop1 (Mus musculus, UniProt Q80VM9)	acid-evoked current, inhibitor, whole-cell patch-clamp	HEK293T	10 mM, pH 5.5, unit not given	baseline: current before compound	remaining current	0.0856
C=CC(=O)c1ccc2ccccc2c1	TGM2 (Homo sapiens, UniProt P21980)	enzyme activity, inhibitor		concentration not given, reversibility, without calcium		inhibition after dialysis	> 90%
CN(Cc1cnc2nc(N)nc(N)c2n1)c1ccc(C(=O)N[C@@H](CCC(=O)O)C(=O)O)cc1	Proton-coupled folate transporter (Homo sapiens, UniProt Q96NT5, I251A)		cells transfected with I251A mutant	2 min, pH 5.5, 37 °C		uptake	13%
CCN1CCC[C@H]1CNC(=O)c1c(O)c(Cl)cc(Cl)c1OC	Probable G-protein coupled receptor 142 (Homo sapiens, UniProt Q7Z601)	β-arrestin recruitment, TANGO luminescence, refers to: GPR142		concentration not given	baseline: basal luminescence	log2 fold change	0.4
Nc1nc2c(ncn2[C@@H]2O[C@H](COP(=O)(O)O)[C@@H](O)[C@H]2O)c(=O)[nH]1	GUK1 (Homo sapiens, UniProt Q16774, D103A)	enzyme activity, NADH-coupled		500 µM		reaction rate	13.5 s⁻¹ and 13.8 s⁻¹ and 13.7 s⁻¹
NC/C(=C\F)COc1cccc(Cn2c(=S)[nH]c(=O)c3[nH]cnc32)c1	Myeloperoxidase (MPO, Homo sapiens, UniProt P05164)	inhibitor, cholesteryl ester hydroperoxide		0.0556 µM	baseline: control	LDL lipid peroxidation	32.1% and 28.5% and 24.6%
CCC(C)(NCCc1ccc(C(F)(F)F)cc1Cl)c1cccc(NC2=CC(=O)N(C3CCC(=O)NC3=O)C2=O)c1 (centres unmarked)	Cereblon/Ikaros (Homo sapiens, UniProt Q13422+Q96SW2)	protein degradation, degrader, HiBiT luminescence	Jurkat			Dmax	75%
Nc1ncnc2c1ncn2[C@@H]1O[C@H](C[C@@H](N)CC[C@H](N)C(=O)O)[C@@H](O)[C@H]1O	O-methyltransferase (Sorghum bicolor, UniProt A0A1B6PFV1)	biolayer interferometry		added: saturating PTR		cooperativity factor σ	0.4
O=c1nc(SCc2ccc(C(F)(F)F)cc2)nc(SCc2ccc3sccc3c2)[nH]1	TOP2A	decatenation		125 µM, replicate 2		decatenated DNA	0%
COc1cc(F)ccc1-c1ncnc(Nc2cccc(C[S@](C)(=N)=O)c2)n1	RET (Homo sapiens, UniProt P07949)	kinase activity		10 µM, added: 10 µM ATP		remaining activity	86%
CC(C)c1cccc2c(/C=C/c3ccccc3)cc(-c3ccc(-c4ccc(C(=O)O)cc4)[nH]3)nc12	RARB (Homo sapiens, UniProt P10826)	reporter gene, antagonist			baseline: IC50 RARα over IC50 RARB	selectivity ratio	~4 fold
c1ccc(CCCCCOCCc2ccc3c(c2)CCO3)cc1	ATP2A2 (Sus scrofa, UniProt P11607)	ATPase Vmax increase, activator	pig microsomes	0.1 to 50 µM	baseline: vehicle	Emax	~50%

For quick reference, copied from above:
Compound	target	test	test system	conditions	how to read	quantity	value
C=CC(=O)c1ccc2ccccc2c1	TGM2 (Homo sapiens, UniProt P21980)	enzyme activity, inhibitor		concentration not given, reversibility, without calcium		inhibition after dialysis	> 90%
N#Cc1ccc(C[C@H](NC(=O)c2cc3ccccc3[nH]2)C(=O)N2CCc3ccccc32)cc1	FPR1 (Homo sapiens, UniProt P21462)	calcium mobilization, agonist	HL-60	concentration not given		agonist activity	inactive
[Zn+2]	Otop1 (Mus musculus, UniProt Q80VM9)	acid-evoked current, inhibitor, whole-cell patch-clamp	HEK293T	10 mM, pH 5.5, unit not given	baseline: current before compound	remaining current	0.0856
